Published values of several laboratories.
Parts stem from different laboratories: compare values within a part only. Changes are numbered by the printed parent chain.

Block 1
Target: CCNB3, cyclin fold, Cln2 fusion (human)
Technique: yeast growth competition, sequencing
Medium: yeast
Setting: strong parent motif
Reference: not given
Direction: higher = stronger binding
Starting sequence: SCAPER docking peptide (human); SNARRSLNFGGST; partner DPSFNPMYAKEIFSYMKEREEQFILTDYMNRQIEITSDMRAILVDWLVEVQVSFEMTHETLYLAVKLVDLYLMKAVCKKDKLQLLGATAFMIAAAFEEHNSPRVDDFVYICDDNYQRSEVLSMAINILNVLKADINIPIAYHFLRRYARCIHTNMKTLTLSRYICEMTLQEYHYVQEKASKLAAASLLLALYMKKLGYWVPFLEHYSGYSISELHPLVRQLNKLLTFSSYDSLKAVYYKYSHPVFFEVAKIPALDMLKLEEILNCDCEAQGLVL
Change	normalised enrichment score
SNARRSLNPGGST [F9P]	-0.156
SNARRSLNFGGSL [T13L]	1.47
SAARRSLNFGGST [N2A]	1.61
SNARRSLNFGIST [G11I]	1.29
SNARRSLCFGGST [N8C]	0.376
SNARTSLNFGGST [R5T]	0.3
SNGRRSLNFGGST [A3G]	0.079
SNARISLNFGGST [R5I]	0.399
SNARVSLNFGGST [R5V]	0.516
SNARRSLNFGGSW [T13W]	0.402
SNARRSLNFGKST [G11K]	1.64
SNARRMLNFGGST [S6M]	1.08
SNARRCLNFGGST [S6C]	1.16
SNARASANFGGST [R5A L7A]	-0.0759
SNARRSLNFGGSG [T13G]	1.22

Block 2
Target: Histone acetyltransferase KAT6A, both winged helices, GST fusion (KAT6A, Homo sapiens, UniProt Q92794, residues 1-181)
Technique: protein binding microarray
Form: double-stranded DNA, one strand shown
Medium: in vitro
Concentration: not given
Setting: 8-mer, flanks averaged, mean of 2 arrays, mostly near background
Reference: not given
Direction: higher = stronger binding
Construct (chain): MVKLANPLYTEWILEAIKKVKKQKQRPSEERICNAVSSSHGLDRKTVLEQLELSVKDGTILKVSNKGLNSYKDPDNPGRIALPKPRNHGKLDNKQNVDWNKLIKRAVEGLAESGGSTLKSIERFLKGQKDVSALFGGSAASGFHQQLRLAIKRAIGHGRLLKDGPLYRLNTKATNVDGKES
Strand	E-score
CGGAAGGA	0.183
AGACCGAT	0.0219
ATCCCGCC	0.267
GATTGAAA	-0.0869
CTGCCAAA	-0.0926
ACAGTCAG	0.0341
CTCTCGAC	-0.0787
ATTGCAAA	-0.099
GATGCTAA	-0.00107
GCAGTGAC	-0.0381
GACCACGC	0.0445
AAAATTAT	0.0238
CATTTAGG	-0.103
AGTATTAT	-0.302
TGGAAAAA	0.0423
CACTTGGA	-0.175
AATGTTGT	-0.0664

Block 3
Target: Interferon regulatory factor 5, full length, phosphomimetic (IRF5, Homo sapiens, UniProt Q13568-2, residues 1-514, S451D/S453D/S456D/S462D)
Technique: protein-binding microarray
Form: double-stranded DNA, one strand shown
Medium: in vitro
Concentration: 940 nM top
Setting: 60-bp whole probe
Together with: salmon DNA 0.4 mg/ml
Reference: random background probes
Direction: higher = stronger binding
All sequences stand within: GCCTAGCAC … GTCTTGATTCGCTTGACGCTGCTG
Strand	fitted relative affinity
GACGGTATCGGATTGGGGACGTGCTAG	3.95 z-score
TTCTTTTTTTTCTTTAAAAGGTGCTAG	0.947 z-score
AACGGTTTCGGTTCCGGGACGTGCTAG	12.7 z-score
TCAGGTTTACCAGATCATACTGTGCTA	-0.342 z-score
ACATGCTTCGAGATCTCCGAGTGCTAG	-0.23 z-score
TCATTCTCCTATTTAAGACTGTGCTAG	1.53 z-score
TTAGCACTGGGGTTTCGGTTAGTGCTA	5.82 z-score
TTAGGTGTCGGTTCCGGTTAGTGCTAG	2.2 z-score
GACGGACTGGGGTTTCGAGACGTGCTA	2.12 z-score
GACGATATCAGTCACGAGACGTGCTAG	-0.116 z-score
TTAGAACTGGGGTATAGATTAGTGCTA	0.136 z-score
TCATATCTAAGATTCTAACTGTGCTAG	0.269 z-score
TTAGATATCGGGACTGGACTAGTGCTA	0.0584 z-score
TCACTTTACTTTCTTTTACTGTGCTAG	2.98 z-score
ACAGCTCTGCGGTTCAGATAGTGCTAG	-0.352 z-score
TTAGGTATCGACACTGGGGTAGTGCTA	5.16 z-score
CCCATTCTGAATTCGAATGCGTGCTAG	0.0361 z-score
TTAGATATCGGGTTTCGAATAGTGCTA	2.04 z-score

Block 4
Target: RING finger protein unkempt homolog, zinc fingers 1-6, SBP tag (UNK, Homo sapiens, UniProt Q9C0B0, residues 30-357)
Sequence of UniProt Q9C0B0 (30-357, looked up): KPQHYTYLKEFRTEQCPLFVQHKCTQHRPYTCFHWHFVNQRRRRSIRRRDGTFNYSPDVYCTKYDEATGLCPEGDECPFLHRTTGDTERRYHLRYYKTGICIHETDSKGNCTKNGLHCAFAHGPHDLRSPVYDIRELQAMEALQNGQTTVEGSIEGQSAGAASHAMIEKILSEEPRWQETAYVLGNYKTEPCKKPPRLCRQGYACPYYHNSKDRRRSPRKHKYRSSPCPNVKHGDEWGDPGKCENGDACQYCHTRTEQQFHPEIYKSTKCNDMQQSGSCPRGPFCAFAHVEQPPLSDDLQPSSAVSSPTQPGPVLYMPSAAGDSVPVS
Technique: RNA Bind-n-Seq
Form: RNA
Medium: in vitro
Concentration: 100 nM
Setting: RNA with constant flanks, vertebrate orthologous sites, ends assumed
Reference: input RNA pool
Direction: higher = stronger binding
All sequences stand within: GGGAGUUCUACAGUCCGACGAUC … CAACAGAGGAUUGAGCAUCA
Strand	bound/input enrichment
UAUCUUUAGGAUGAAGCUCUUACAUCAGGUGUCACAAGUCUGGAAAACAGAUGGGUUGAGCAGUUGUGAUUACAAAUUACUCUCUGUGGAUUACAAUCCUUUAUAUAUCAACAUCACAGU	0.609 ratio
UCAGCAGUCUAGAUCUUUUUUUUUUCCUUUUUCCCUUAAUCCUUUUUUAUUUUUAAACAAUAGUUCUUUUGUAAUGUGGUGUUUGACACUGAAUUGAAACUGACACCCUAUCUCUGGGAG	8.97 ratio
UCUAUACAAUUUUAAAAAUACUUCCUCAUAGGAUGCUUUGGGCCUUCAUCUAUUUAAUCAUAGCUACAUAUCUAUUUUUUAUAAGUAGCAGUACACAUUCAAAGGGGUAUUCCUAGCUCA	0.728 ratio
AGAGAAUUUUCACCAAGAGUCUGAAGGUAGAAGUACAGGACCAUGGUUAUCUUCCUCAUUUAGAAAUAGGUGCACUCCUUUGUUCUCCAGAAGGAGACGAGAAGGAAGAGAUGAAUCCUC	0.303 ratio
ACGCUUUGAUAUUAAAUUCGACAUAAAAAGCAGCUGAUCGUAAGCACAACCCUCUUCUCCUAGCCAUUUAAAAAGGUAAAAAACAAAAAAGAAAACCUACUAGUCUUGAACAAACUGUCA	0.632 ratio
ACAUGCGUGAGCUUCUCUACAGUUUAAGACGCUUCCUUUGGUUCCUCACAUAUCUCAUCCUAUUGACUUACCUAUUUUUUAAAAAUAGCAGUAUAAACUCAAAGUGGACUUAACACAGUG	0.78 ratio
UGGGUUUGGGGUAGAAGGGUGGGAAGGGGCAGGAUAAGUGGAAUCUUUAGGGUUUAUGGGAGGUAGGGGCAGUUAGUUCUAAGUGGGCUUUCAUGUUACCUGAUGUGUGAGGGUAAGGAC	1.03 ratio
GUCCUCGGAUUGGAUGAAGACCGUCCCGAGUUACAACCAGACCAAUAGCUCCAUGGACUUCAGAAAUUACAUGAUGAGAGAUGAGAAUCUGGAACCACUGCCCAAAAACUGGGAGAUGGC	0.274 ratio
UGAAAGUUACAGACAAGAGUCUGAAAGUAGAAAUACAGGAUCCUGGUUAUCAUCAUCUCUACGAAACAGAUGUACACCUCUGUUCUCCAGAAGAAGGCGAGAAGGAAGAGAUGAAUCUGC	0.223 ratio
UCCCAGUACCUUGAUAAAAAGUGUGGACUGGUUGCUCGUGUUUUCUCUAUUCUUUUUAAUUAGUUUCAUUAUGUAUGCUACCAUUCGAACUGAGAAUAUUCGGUGGCUAAUUCCAGGACA	1.28 ratio
UGGGUUACUCCUAUUAUUAUCAAGUAGCUGGAAUUGUGAAGGUUGGAGUAGUUAGAUCUUUAGCUUUUAUUCAUUAUUUUUUGUAUUACUCUCCAUGUGUAUAAAUUAUUGAUCAUGUUG	4.22 ratio

Block 5
Target: Prothrombin, mature alpha-thrombin (F2, Homo sapiens, UniProt P00734)
Technique: aptamer microarray, sandwich
Form: DNA with 2'F-ANA
Medium: in vitro
Concentration: 200 nM
Setting: whole 15-mer aptamer, many near background
Together with: Cy3 exosite-II aptamer, 400 nM
Direction: higher = stronger binding
Strand: GGTTGGTGTGGTTGG
Modification	mean fluorescence intensity [a.u.]
2'F-ANA at 2 8 9 10 12 13 14 15	81
2'F-ANA at 1 3 8 9 12 13 14 15	107
2'F-ANA at 2 3 9	863
2'F-ANA at 1 2 3 4 9 10 12 13 15	66.8
2'F-ANA at 4 5 9 13 14	46.1
2'F-ANA at 3 9 10 11 12 13 14	378
2'F-ANA at 1 12	425
2'F-ANA at 6 8 9 11 14 15	142
2'F-ANA at 1 4 5 7 9 11 13 15	48.6
2'F-ANA at 1 4 5 6 8 10 14	49.3
2'F-ANA at 3 4 6 8 10 14	191
2'F-ANA at 3 5 6 8 9 10 11 12 14	51.5
2'F-ANA at 2 3 4 9 10 15	261
2'F-ANA at 1 3 4 5 7 9 10 12	58.6
2'F-ANA at 1 3 4 5 6 7 9 10 13 15	49.8
2'F-ANA at 3 4 5 7 8 9 12 13 14	53
2'F-ANA at 7 8 11 15	515
2'F-ANA at 1 2 3 6 7 10 13	62.2
2'F-ANA at 2 9 10 11 13	108
2'F-ANA at 1 2 3 5 6 7	67.5
2'F-ANA at 4 7 9 10 11 14	61.5
2'F-ANA at 3 6 7 9 10 14 15	423
2'F-ANA at 1 6 7 8 9 10 13 14	53.6
2'F-ANA at 1 2 4 5 6 8 9 11 12 13	69.4
2'F-ANA at 1 2 6 9 10 13 14	89.2

A few entries again (block 3):
Strand	fitted relative affinity
TCATTCTCCTATTTAAGACTGTGCTAG	1.53 z-score
TTAGATATCGGGACTGGACTAGTGCTA	0.0584 z-score
GACGATATCAGTCACGAGACGTGCTAG	-0.116 z-score
TCACTTTACTTTCTTTTACTGTGCTAG	2.98 z-score
TTCTTTTTTTTCTTTAAAAGGTGCTAG	0.947 z-score
TTAGGTGTCGGTTCCGGTTAGTGCTAG	2.2 z-score
ACAGCTCTGCGGTTCAGATAGTGCTAG	-0.352 z-score
GACGGACTGGGGTTTCGAGACGTGCTA	2.12 z-score
